Assay results gathered from unrelated publications.
Target: Phosphorylase b kinase gamma catalytic chain, liver/testis isoform (PHKG2, Homo sapiens, UniProt P15735)

The inhibition of `Cc1cccc(O[C@H]2CCC[C@@H](C(C)CNCc3ccncc3)C2)c1` (relative stereo) is reported as -1% (enzyme activity, inhibitor; 1 µM).
The remaining binding of `CNC1C[S+]2CC[S+]3CC[S+](C1)[Ru-4]321([N]=C=S)[n]2c3ccc(OC)cc3c3c4c(c5cc(F)c[n+]1c5c32)C(=O)NC4=O` (stereo not drawn) is reported as 56% (KinomeScan; 0.1 µM; reference: untreated).
The inhibition of `C=CC(=O)N1Cc2nc(-c3cc(-c4cc(Cl)cnc4Cl)c(F)cc3F)n(-c3ccncn3)c2C1` is reported as 2% (cell-free assay, inhibitor; 1 µM).
With `CN1CC[C@@H](COc2cnc(C#N)cc2-c2ccn3nc(NC(=O)C4CC4)cc3c2)C1` the inhibition was 9% (inhibitor, KinaseProfiler panel; 1 µM).
`Cc1ccc(-c2c(/C=C(\C#N)C(=O)NC(C)C)n(CCCO)c3ncnc(N)c23)cc1` gave a remaining binding of 100% (cell-free assay, competition with immobilised ligand; 1 µM).
With `Nc1ncc2c(n1)-c1c([nH]c3ccc(C4=CCOCC4)cc13)CCC2` the remaining binding was 100% (binding, competition with immobilised ligand; 1 µM).
`C=CC(=O)N1CCCC(n2c(=O)c3ncccc3n(Cc3ccc(Oc4ccccc4)cc3)c2=O)C1` (stereo not drawn) has a remaining binding of 91% (cell-free assay, competition with immobilised ligand; 1 µM).
`CNC(=O)C1CCN(c2cc(C)c(F)cc2NC(=O)c2ccc(-c3cc(O)ccc3C)c(C)c2)CC1` gave a remaining binding of 97% (binding, competition with immobilised ligand; 1 µM).
The remaining binding of `CC(C)=CC1OC(C)(C)C2C=C3C(=O)C(Cl)=CC(O)C3C3C(O)C4OC4C(=O)C132` (stereo not drawn) is reported as 56% (cell-free assay, competition with immobilised ligand; 10 µM).
For `Cc1cnc2nc1Nc1cccc(c1)COC/C=C/COCc1cc(ccc1OCCN1CCOCC1)N2`, the remaining binding was 98% (binding; 0.1 µM).
The inhibition of `NC(=O)C[C@H]1CCc2sc3ncnc(O[C@H]4CC[C@H](N5CCOCC5)CC4)c3c21` is reported as -2% (enzyme activity, inhibitor; 10 µM).
`Nc1ncc(-c2cc(-c3cnn(CC(F)(F)F)c3)ncc2F)nc1C(=O)NC1CNCC(F)C1` (stereo not drawn) has a remaining activity of 99% (enzyme activity; 1 µM; reference: DMSO control).
With `COc1cc(Nc2nccc(-c3cnn4nc(OC)ccc34)n2)cc(C(F)(F)F)c1` the remaining binding was 100% (binding, competition with immobilised ligand; 1 µM).
The inhibition of `C=CC(=O)Nc1cccc(-c2cnc3[nH]cc(C(=O)NC(C)(C)C)c3n2)c1` is reported as 7% (kinase activity; 0.1 µM).
`CCN1CCN(Cc2ccc(C(=O)Nc3ccc(C)c(NCc4cnc5[nH]ccc5c4OC)c3)cc2C(F)(F)F)CC1` gave a remaining binding of 88% (binding, competition with immobilised ligand; 1 µM).

A few entries again:
With `Nc1ncc2c(n1)-c1c([nH]c3ccc(C4=CCOCC4)cc13)CCC2` the remaining binding was 100% (binding, competition with immobilised ligand; 1 µM).
`C=CC(=O)N1CCCC(n2c(=O)c3ncccc3n(Cc3ccc(Oc4ccccc4)cc3)c2=O)C1` (stereo not drawn) has a remaining binding of 91% (cell-free assay, competition with immobilised ligand; 1 µM).
